Results from different studies.
Every numbered part comes from another study and shows a few of its results, in no order.

Sample 1 — technique: universal PBM; molecule type: double-stranded DNA, one strand shown; matrix: in vitro; concentration: 600 nM; direction: higher = stronger binding
Target: Sal-like protein 4, full length isoform A (SALL4, Homo sapiens, UniProt Q9UJQ4, residues 1-1053)
Sequence of UniProt Q9UJQ4 (whole entry, looked up): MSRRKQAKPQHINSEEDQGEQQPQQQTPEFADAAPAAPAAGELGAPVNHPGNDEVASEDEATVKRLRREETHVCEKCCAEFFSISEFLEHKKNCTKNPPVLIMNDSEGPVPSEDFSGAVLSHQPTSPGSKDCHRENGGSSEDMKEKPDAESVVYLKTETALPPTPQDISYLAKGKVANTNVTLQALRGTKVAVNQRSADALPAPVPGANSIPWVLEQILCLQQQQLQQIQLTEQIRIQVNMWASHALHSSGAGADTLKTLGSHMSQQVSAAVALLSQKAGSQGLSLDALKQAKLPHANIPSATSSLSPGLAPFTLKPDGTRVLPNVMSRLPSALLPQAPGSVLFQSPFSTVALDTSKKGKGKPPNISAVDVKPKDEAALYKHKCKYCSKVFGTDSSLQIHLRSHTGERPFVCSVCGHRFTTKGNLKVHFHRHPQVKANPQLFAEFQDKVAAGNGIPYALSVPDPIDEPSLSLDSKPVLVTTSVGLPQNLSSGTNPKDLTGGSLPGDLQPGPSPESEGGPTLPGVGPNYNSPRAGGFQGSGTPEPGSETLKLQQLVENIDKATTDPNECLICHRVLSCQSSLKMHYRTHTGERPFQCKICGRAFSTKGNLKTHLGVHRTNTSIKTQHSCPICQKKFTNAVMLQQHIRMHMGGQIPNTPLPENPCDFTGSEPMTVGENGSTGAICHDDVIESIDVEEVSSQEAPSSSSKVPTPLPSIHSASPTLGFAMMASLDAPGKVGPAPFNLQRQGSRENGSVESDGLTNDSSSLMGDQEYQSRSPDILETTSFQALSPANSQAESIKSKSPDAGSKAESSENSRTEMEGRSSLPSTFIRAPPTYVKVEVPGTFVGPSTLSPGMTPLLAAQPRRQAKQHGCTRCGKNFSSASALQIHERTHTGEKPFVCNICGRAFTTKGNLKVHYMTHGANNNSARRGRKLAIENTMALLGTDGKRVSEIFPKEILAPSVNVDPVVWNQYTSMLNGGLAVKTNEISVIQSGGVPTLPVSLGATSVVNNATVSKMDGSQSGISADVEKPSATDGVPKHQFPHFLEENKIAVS
Notes: 8-mer, flanks averaged, mean of replicates
Oligonucleotide | E-score
AATTAGGC | 0.16
GCGGAAGC | -0.295
CGACGCCC | -0.234
AAACGAGA | 0.106
CCAATCGC | -0.126
CTGAACCA | -0.109
CACGCATA | 0.00569
GAGGTATC | -0.154
AAAGGCGT | -0.122
AATTGGGC | -0.0922
ATGGTGTG | 0.0513
GGTGTCAC | -0.158
CGTACAAA | 0.125
ATTGCCGG | -0.212
AAATCTGG | 0.0476
GTCCTTTA | -0.0003
CCAGATAG | -0.0841
TCCGCTAA | -0.138
GGGTAATA | 0.223
GCCTGCCC | -0.367
ACGAAGAC | -0.235
CTTTCTGC | -0.046
AGTACTAA | 0.215

Sample 2 — technique: protein binding microarray; molecule type: double-stranded DNA, one strand shown; matrix: in vitro; concentration: not given; baseline: not given; direction: higher = stronger binding
Target: Histone acetyltransferase KAT6A, winged helix 1, GST fusion (KAT6A, Homo sapiens, UniProt Q92794, residues 1-85)
Notes: 8-mer, flanks averaged, mean of 2 arrays, mostly near background
Residues (chain): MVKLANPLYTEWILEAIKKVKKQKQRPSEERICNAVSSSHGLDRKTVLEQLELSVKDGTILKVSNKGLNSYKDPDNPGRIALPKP
Oligonucleotide | E-score
AGGAGTGC | -0.017
CAAAGTTG | -0.179
CGGCAGAC | 0.248
GCAGGCAA | -0.0464
ATCAAGCC | 0.0309
CTAGCATC | -0.0372
GATGACAC | -0.115
CATAACCA | -0.132
ACCCGGCG | 0.441
GGTCATAC | 0.142
ACACTCGA | -0.137
CAGGCTGA | -0.0351
ACAGCAAA | 0.0126
AAGGTCAC | 0.0636
ACGCCCAT | 0.0345
AACACCAG | -0.198
GAGTGCAC | -0.184
CGACAGTA | 0.084
GTGGTGTA | -0.194
GGCAGTTA | -0.0134

Sample 3 — technique: RNA Bind-n-Seq; molecule type: RNA; matrix: in vitro; concentration: not given; notes: RNA with constant flanks, ends assumed; baseline: input RNA pool; direction: higher = stronger binding
Target: RING finger protein unkempt homolog, zinc fingers 1-6, GST-SBP tag (UNK, Homo sapiens, UniProt Q9C0B0, residues 30-357)
Sequence of UniProt Q9C0B0 (30-357, looked up): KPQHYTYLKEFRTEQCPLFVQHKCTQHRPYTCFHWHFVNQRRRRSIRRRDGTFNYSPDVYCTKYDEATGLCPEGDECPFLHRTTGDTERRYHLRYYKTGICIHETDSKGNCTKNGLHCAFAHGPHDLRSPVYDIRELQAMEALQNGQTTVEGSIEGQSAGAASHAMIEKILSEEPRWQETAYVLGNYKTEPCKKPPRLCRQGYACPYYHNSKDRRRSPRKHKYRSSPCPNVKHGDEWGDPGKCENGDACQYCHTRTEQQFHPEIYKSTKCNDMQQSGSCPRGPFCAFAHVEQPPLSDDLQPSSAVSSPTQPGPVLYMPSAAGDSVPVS
Constant ends, left off below: GGGAGUUCUACAGUCCGACGAUC … CAACAGAGGAUUGAGCAUCA
Oligonucleotide | bound/input enrichment [ratio]
CUGCGCCAGAGAACAGAGAAUAUAGAUAUUAAAAAGUAUUGUGUGCAGUACCUGGAGGAUGCCGGUUCUUUUGCAUACACUCGACACACUCUUAGAGAGCUUGAAGCUAAAGCCUACAAA | 11.2
GGCUUCGAGCUUCCUCAAGGGCCCCUGGGAACAUCCUUUAAAGGAAAAUAUGGUUGCGCCGACUACUGGGUGAAGGCUUUUCUCGAUCGCCCCAGCCAGCCAACUCAAGAGGCAAAGAAA | 0.119
GUGGGAGAUUUGGUUCUCAUCAUCCUAGAUGAGCGGCACGACAAUUAUGUAUUGUUUACUGUCCGUCCUACUUUAUAUUUUCUGCACUCAGAGUCUCUUCCUGCCCUGGAUCUCAAACCA | 0.305
UUUGUGAAUUUCUCUGAGCAGAAGGAAAAGCUGAUAAAGCGGCAAGAGGAAUUGGACCGAGGCUACAAAUCAAUCAUGGAAUUGAUGAAUGUACUUGAACUUAGAAAAUAUGAAGCUAUU | 0.795
GCCCUCAACUUCUCCGUGUUCUACUAUGAGAUCCAGAAUGCACCUGAGCAAGCCUGCCUCUCCGCCAAACAAGCCUUCGAUGAUGCCAUAGCUGAGCUGGACACACUAAACGAGGAUUCC | 0.251
UAACGCCGCCGCCCCGGAGCCGCCUUGGAGGUCCCCCUCCCCACUAAGUGCCUCUUUGCACCGCACCAGUCCCCACCCGCACGCUCUCUGGACCACUACAGCUGGACGGGCAAUGGCGGG | 0.44
CUAGGGAUUGGGCCAGGACCAGCAGACCUAAUUGACAAAGUCACUGGUCACCUAAAACUUUACCCGGUGGACUUUGAUAUGACAACAACCCCUCCAUCACAAGUGUUUGAAGCCUGUCAG | 0.153
GGUGUUCCCUCUUUUUUUCCACGAGGGUGUUUUUGGCUGCAAUUGCAUGAAAUCCCAAUGGUGCCGACCAGUGGCGAUGGAUCUAGGAGUUUACCAACUGAGACAUUUUUCAAUUUCUUU | 0.533

Sample 4 — technique: RNA Bind-n-Seq; molecule type: RNA; matrix: in vitro; concentration: 365 nM; baseline: no-protein control; direction: higher = stronger binding
Target: RNA binding protein fox-1 homolog 2, RRM domain, GST-SBP tag (RBFOX2, Homo sapiens, UniProt O43251-10, residues 100-194)
Notes: natural RNA segment, single round, ends assumed
Constant ends, left off below: GGGAGUUCUACAGUCCGACGAUC … UGGAAUUCUCGGGUGCCAA
Target sequence (chain): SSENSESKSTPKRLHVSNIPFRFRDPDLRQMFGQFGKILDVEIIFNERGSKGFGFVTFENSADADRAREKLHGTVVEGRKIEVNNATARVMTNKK
Oligonucleotide | RBNS enrichment (R)
UCAAAAUAUAGAUUAAUUGGCUCAGCUUUAAUACCUUUCUAGGAGGUGUCACAAUGUAGGGUACCAAGGGUUGGAUUGUGAUGGGGCAUGGUCGUACACUGCUCAUUGUG | 0.526
AACAGCCCCACACAGCUCUGAUUCCAUAGCUGCAUUAAAGAUGAUUAUUUAUAUUACAGAGAAAAGAGGGAUCGGCCCUCCAAGGACCAGACAGAUUGAGAGAGAGUCAC | 0.488
GUUACAAGAAUGUGGCAAUUCUAUUUGUCCAAGAGCAUUCUUACACAACUUUCUUUUGUAAAUUUUUCUUUCAUGCCAAAAAACAUGCGGGCAAUUUGUUGAUGAGGUGA | 0.446
GAGGGCUAUUUGCCCACCUUCACUCUCCCUGCCUUCCCUUCUGAGUUGUGGUAGAGCAAAGACCCACAGGGGUUGGACCCAGACCUCUUAAAACCUGGCUGGACCCCCAU | 0.759
AAGCAAUUAUCAAAGCGGGCUGGGUCCCAUCAGAACGACCCACAUCUUUCUGUGGGUGUGAAUGUCAUUAGGUCUUGCGCUGACCCCUGAGCCCCCAUCACUGCCGCCUG | 1.79
AUAUGGAUUUUUUUCCUUAAGAAAAUCUCCUUUUAGGAGAUCAUGGUGUCACAGUGUUUGGUUCUUUUGUUUUGUUUUUUAACACUUGUCUCCCCUCAUACACAAAAGUA | 0.42
UGUAAAGACAAAAAACUAUAUGUAUGGUUUUGUGGAUUAUGUGUGUUUUGCUAAAGGAAAAAACCAUCCAGGUCACGGGGCACCAAAUUUGAGACAAAUAGUCGGAUUAG | 0.926
CACGGAUUCAUAUGGUACCUUCCUUCUAAACUUGAGGAAGGCAUUUGUCUUCCGGCUGCUCAGGGCUCUCACGCCCAGACCCUGCUUUAGAGUCCUGGAGUGACCACAGC | 0.238

Sample 5 — technique: protein-binding microarray; molecule type: double-stranded DNA, one strand shown; matrix: in vitro; concentration: not given; direction: higher = stronger binding
Target: Transcription factor Sp1 (SP1, Homo sapiens, UniProt P08047, residues 1-785, full length assumed)
Sequence of UniProt P08047 (whole entry, looked up): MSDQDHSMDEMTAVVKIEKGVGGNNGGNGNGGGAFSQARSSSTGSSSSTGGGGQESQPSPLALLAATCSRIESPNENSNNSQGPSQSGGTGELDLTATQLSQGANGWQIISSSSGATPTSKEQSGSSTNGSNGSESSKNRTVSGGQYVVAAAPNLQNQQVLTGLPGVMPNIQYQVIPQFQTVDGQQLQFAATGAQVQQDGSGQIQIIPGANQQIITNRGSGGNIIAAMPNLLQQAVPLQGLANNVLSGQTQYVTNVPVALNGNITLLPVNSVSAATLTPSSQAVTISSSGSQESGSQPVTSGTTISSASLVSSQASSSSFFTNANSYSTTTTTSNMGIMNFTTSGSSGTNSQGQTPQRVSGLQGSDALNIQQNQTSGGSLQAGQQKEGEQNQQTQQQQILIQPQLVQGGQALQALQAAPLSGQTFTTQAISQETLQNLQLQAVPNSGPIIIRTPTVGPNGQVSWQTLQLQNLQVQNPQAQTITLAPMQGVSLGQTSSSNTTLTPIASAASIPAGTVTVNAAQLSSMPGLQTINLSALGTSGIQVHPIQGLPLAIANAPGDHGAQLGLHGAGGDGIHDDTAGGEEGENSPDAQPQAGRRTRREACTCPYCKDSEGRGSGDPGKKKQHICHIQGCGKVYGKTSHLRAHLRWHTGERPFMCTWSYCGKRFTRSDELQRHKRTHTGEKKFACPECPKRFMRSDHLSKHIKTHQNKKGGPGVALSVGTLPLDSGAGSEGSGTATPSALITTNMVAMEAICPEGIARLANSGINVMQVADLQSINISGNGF
Notes: k-mer, scored over probes, only values ≥0.25
Oligonucleotide | E-score
AGATGGGG | 0.299
ACAATGTA | 0.288
CCCCTTGA | 0.316
CATACATG | 0.305
ATATATGC | 0.293
ATATATAC | 0.29
ACACCCAC | 0.299
ACCCCACA | 0.396
GGGGAAGA | 0.268
ACATCATA | 0.305
ATTACGTA | 0.259
ACATATCC | 0.251
ATTCACAA | 0.301
CCCTACCC | 0.269
AGGGCGGG | 0.483
CGCCCATA | 0.34
CCTTGCTA | 0.259
CCACACAC | 0.281
